Experimental data collected from several papers.
Numbered parts are unrelated; each lists some results of a single study. Values joined by “and” are separate records of one study, mostly repeats; a detail may differ.
UniProt Q13882, sequence (whole entry, looked up): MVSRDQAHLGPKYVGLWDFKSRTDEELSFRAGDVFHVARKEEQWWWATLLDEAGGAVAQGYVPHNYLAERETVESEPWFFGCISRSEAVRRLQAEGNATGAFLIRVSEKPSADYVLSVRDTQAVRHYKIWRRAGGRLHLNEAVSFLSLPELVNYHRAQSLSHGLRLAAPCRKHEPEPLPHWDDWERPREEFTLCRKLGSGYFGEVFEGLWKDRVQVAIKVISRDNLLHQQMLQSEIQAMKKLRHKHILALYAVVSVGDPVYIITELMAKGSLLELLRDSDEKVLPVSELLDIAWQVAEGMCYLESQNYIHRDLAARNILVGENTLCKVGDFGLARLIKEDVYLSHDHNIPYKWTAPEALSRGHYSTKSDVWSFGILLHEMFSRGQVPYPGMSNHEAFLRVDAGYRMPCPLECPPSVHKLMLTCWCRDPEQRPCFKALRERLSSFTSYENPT
UniProt P43403, sequence (whole entry, looked up): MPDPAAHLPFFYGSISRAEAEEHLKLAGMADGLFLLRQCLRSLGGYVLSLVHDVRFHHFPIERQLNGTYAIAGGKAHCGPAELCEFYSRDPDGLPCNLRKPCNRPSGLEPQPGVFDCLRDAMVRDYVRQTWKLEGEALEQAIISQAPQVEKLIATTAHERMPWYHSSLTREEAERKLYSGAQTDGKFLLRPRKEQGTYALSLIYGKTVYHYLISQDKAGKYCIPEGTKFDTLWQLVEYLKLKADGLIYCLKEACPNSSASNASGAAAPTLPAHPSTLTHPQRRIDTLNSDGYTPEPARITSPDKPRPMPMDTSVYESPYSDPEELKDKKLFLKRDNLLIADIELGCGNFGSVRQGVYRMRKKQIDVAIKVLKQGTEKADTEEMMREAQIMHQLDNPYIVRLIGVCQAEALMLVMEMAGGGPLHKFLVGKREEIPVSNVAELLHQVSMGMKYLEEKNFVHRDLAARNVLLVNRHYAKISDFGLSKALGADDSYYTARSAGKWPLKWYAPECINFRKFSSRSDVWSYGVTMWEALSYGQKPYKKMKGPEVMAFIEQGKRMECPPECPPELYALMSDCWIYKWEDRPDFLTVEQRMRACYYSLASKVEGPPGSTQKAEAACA
UniProt Q96GD4, sequence (whole entry, looked up): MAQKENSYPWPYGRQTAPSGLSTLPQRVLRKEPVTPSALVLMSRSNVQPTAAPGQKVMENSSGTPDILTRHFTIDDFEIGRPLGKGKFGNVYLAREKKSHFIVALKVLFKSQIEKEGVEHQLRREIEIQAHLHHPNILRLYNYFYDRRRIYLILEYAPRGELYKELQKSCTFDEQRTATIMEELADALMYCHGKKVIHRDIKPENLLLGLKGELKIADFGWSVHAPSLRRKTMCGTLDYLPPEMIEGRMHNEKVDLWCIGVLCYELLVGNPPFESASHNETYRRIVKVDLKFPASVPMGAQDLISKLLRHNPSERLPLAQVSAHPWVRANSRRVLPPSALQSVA

Study 1
SMILES: COc1ccc2c(c[n+](C)c3c4cc5c(cc4ccc23)OCO5)c1OC
Read-out: enzyme activity
Action: inhibitor
Tested at: 0.5 µM
Baseline: control
| target | remaining activity |
| --- | --- |
| Inhibitor of nuclear factor kappa-B kinase subunit alpha (CHUK, Homo sapiens, UniProt O15111) | 97.5% |
| Protein-tyrosine kinase 6 (PTK6, Homo sapiens, UniProt Q13882) | 94.4% |
| Tyrosine-protein kinase ZAP-70 (ZAP70, Homo sapiens, UniProt P43403) | 101% |
| Focal adhesion kinase 1 (PTK2, Homo sapiens, UniProt Q05397) | 102% |
| Aurora kinase B (AURKB, Homo sapiens, UniProt Q96GD4) | 99.2% |
| Tyrosine-protein kinase SYK (SYK, Homo sapiens, UniProt P43405) | 98.8% |
| Dual specificity protein kinase TTK (TTK, Homo sapiens, UniProt P33981) | 101% |
| High affinity nerve growth factor receptor (NTRK1, Homo sapiens, UniProt P04629) | 89.8% |

Study 2
Target: DNA polymerase theta, ATPase domain (POLQ, Homo sapiens, UniProt O75417)
UniProt O75417, sequence (whole entry, unmodified, looked up): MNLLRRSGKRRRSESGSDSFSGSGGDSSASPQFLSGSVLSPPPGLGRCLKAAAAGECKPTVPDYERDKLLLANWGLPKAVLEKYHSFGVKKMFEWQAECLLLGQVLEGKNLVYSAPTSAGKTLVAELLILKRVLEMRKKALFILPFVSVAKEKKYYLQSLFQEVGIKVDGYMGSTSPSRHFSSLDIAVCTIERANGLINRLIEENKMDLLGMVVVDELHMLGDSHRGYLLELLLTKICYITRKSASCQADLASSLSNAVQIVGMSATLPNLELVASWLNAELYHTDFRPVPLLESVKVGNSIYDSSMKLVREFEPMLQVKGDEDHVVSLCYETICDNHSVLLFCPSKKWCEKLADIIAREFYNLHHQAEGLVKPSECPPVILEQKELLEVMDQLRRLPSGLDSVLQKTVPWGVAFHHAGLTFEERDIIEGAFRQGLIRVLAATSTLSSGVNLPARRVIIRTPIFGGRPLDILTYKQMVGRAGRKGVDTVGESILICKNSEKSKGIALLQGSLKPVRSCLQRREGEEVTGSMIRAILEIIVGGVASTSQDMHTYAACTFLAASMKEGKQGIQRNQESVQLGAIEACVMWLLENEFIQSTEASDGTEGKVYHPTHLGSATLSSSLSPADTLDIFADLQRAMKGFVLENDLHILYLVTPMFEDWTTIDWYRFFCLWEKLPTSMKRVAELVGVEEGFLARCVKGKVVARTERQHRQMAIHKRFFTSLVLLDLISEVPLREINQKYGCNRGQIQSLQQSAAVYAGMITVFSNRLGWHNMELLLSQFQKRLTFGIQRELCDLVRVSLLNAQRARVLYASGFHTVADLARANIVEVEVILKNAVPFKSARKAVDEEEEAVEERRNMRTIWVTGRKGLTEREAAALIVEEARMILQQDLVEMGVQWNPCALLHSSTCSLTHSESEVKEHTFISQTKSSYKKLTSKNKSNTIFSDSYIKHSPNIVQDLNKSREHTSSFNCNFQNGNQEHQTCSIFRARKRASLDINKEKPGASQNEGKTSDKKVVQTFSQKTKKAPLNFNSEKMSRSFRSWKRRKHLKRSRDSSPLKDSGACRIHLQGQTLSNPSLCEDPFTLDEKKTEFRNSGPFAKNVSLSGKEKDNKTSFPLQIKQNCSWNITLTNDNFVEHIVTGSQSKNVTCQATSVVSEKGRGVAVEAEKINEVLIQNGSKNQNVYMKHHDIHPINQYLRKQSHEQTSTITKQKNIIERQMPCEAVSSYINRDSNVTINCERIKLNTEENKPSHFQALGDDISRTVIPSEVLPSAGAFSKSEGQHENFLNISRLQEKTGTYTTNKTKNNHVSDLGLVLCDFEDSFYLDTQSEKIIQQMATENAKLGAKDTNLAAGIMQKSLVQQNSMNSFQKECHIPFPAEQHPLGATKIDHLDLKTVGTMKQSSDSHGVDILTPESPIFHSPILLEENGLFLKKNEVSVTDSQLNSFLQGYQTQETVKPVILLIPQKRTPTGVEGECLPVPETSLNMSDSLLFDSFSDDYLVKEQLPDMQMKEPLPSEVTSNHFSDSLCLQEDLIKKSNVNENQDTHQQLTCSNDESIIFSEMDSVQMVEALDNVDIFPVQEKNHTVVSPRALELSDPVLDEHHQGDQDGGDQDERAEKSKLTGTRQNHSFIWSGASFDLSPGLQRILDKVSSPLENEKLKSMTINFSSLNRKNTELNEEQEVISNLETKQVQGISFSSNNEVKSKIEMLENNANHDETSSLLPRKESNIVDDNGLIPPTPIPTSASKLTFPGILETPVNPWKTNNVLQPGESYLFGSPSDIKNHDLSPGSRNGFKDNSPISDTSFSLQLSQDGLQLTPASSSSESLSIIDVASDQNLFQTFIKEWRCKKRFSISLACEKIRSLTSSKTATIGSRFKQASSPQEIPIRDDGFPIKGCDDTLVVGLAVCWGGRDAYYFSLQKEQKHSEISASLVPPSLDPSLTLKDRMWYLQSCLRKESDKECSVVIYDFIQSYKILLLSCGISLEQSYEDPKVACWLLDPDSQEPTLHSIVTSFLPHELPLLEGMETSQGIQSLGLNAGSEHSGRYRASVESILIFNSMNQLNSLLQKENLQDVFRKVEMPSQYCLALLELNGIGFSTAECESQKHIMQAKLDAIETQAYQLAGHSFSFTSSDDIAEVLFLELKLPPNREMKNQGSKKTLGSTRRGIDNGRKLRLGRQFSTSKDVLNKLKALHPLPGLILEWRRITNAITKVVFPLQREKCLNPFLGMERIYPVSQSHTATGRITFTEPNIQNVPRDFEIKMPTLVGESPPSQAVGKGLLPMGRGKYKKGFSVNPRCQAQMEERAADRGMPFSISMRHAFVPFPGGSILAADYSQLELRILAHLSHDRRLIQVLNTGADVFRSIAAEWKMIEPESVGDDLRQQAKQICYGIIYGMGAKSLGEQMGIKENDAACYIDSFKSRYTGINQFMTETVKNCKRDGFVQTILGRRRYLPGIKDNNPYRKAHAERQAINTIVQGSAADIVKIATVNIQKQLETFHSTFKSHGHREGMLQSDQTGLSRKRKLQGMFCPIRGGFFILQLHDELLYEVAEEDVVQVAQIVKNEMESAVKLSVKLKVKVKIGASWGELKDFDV
Read-out: enzyme activity
Action: inhibitor
Tested at: 77 µM
Baseline: untreated
| SMILES | remaining activity |
| --- | --- |
| C[C@]12CC[C@@H](O)C[C@H]1CC[C@@H]1[C@@H]2CC[C@]2(C)C(=O)CC[C@@H]12 | 104% |
| Cc1c2ccncc2c(C)c2c1[nH]c1ccccc12 | 102% and 105% |
| COc1ccc(CNC(=O)/C=C/c2ccc3[nH]cc(CCN(C)C)c3c2)cc1 | 102% |
| Cn1cnc(CCN)c1 | 102% |

Study 3
SMILES: O=C1CCC(N2Cc3c(ccc4c3OCC43CCN(Cc4ccccc4)CC3)C2=O)C(=O)N1 (stereo not shown)
Target: CRBN/Zinc finger protein Helios (Homo sapiens, UniProt Q96SW2+Q9UKS7)
UniProt Q9UKS7, sequence (whole entry, looked up): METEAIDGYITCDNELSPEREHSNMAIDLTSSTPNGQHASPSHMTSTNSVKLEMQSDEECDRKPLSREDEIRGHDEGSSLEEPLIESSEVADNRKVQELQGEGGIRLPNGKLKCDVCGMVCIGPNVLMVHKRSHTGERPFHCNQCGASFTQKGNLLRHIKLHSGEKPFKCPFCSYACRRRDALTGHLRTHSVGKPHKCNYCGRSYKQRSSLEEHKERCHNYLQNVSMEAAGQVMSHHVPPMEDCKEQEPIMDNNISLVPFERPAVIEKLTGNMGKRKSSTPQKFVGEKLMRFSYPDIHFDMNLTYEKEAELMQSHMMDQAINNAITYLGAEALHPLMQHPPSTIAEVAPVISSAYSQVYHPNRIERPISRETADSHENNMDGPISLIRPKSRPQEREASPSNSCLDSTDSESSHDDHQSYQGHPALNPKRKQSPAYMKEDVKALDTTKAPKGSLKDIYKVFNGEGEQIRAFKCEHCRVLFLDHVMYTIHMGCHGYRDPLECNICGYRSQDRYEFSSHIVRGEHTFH
UniProt Q96SW2, sequence (whole entry, looked up): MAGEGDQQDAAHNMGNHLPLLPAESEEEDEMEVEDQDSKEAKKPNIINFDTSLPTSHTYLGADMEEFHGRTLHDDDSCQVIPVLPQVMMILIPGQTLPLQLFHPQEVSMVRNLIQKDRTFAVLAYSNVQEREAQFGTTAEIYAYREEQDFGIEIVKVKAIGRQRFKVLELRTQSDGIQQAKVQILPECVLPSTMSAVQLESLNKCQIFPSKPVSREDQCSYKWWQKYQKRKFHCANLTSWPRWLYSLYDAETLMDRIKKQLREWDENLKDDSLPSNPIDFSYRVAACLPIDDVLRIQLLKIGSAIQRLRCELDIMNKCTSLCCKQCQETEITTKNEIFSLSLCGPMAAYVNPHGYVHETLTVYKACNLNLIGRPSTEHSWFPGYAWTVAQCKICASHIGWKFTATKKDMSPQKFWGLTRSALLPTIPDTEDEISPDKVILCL
Action: degrader
Method: HiBiT
Cells: HEK293
| setting | protein remaining [%] |
| --- | --- |
| 123.5 nM, 6 h | 80.2 |
| 123.5 nM | 80.2 |
| 0.5081 nM, 6 h | 115 |
| 0.1694 nM, 6 h | 108 |
| 41.15 nM, 6 h | 81.4 |
| 4.572 nM, 6 h | 120 |

Further values, each from its own experiment
| Compound | target | test | setting | quantity | value |
| --- | --- | --- | --- | --- | --- |
| O=C(NCc1ncc(C(F)(F)F)cc1Cl)c1ccc2c(c1)C1(CCS(=O)(=O)CC1)[C@@H](C1CC1)N2S(=O)(=O)c1ccc(F)cc1 | Cyclin-G-associated kinase (GAK, Homo sapiens, UniProt O14976) | cell-free assay, competition with immobilised ligand | 1 µM | remaining binding | 96% |
| CNC(=O)Nc1ccc2c(c1)CC[C@]21OC(=O)N(CC(=O)N(Cc2ccc(F)cc2)[C@@H](C)C(F)(F)F)C1=O | Sodium-dependent noradrenaline transporter (SLC6A2, Homo sapiens, UniProt P23975) | ligand displacement | 10 µM | inhibition | 2.78% |
| Cc1c(C(=O)O)cc(-c2ccc(C3CCNCC3)cc2)c2ccc(-c3ccc(C(F)(F)F)cc3)cc12 | Calcium-dependent protein kinase 1 (CDPK1, Plasmodium falciparum, UniProt P62344) | cell-free assay, competition with immobilised ligand | 1 µM | remaining binding | 100% |
| CN([C@@H]1CCc2c(CC(=O)O)c3cc(S(C)(=O)=O)ccc3n2C1)S(=O)(=O)c1ccc(F)cc1 | Cyclin-dependent kinase 2 homolog (CRK2, Plasmodium falciparum, UniProt P61075) | cell-free assay, competition with immobilised ligand | 1 µM | remaining binding | 100% |

Excerpt of the above (study 2):
| SMILES | remaining activity |
| --- | --- |
| Cn1cnc(CCN)c1 | 102% |
